Published values from different studies.
Each line is one published result; not all experiments were run side by side.
Technique: steady-state kinetics
B1: Comt (Mus musculus, UniProt O88587); chain MLLAAVSLGLLLLAFLLLLRHLGWGLVAIGWFEFVQQPVHNLLMGGTKEQRILRHVQQHAKPGDPQSVLEAIDTYCSEKEWAMNVGDAKGQIMDAVIREYRPSLVLELGAYCGYSAVRMARLLPPGARLLTMEINPDYAAITQQMLDFAGLQDKVSILIGASQDLIPQLKKKYDVDTLDMVFLDHWKDRYLPDTLLLEECGLLRKGTVLLADNVIVPGTPDFLAYVRGSSSFECTHYSSYLEYMKVVDGLEKAVYQGPGSSPVKS
B2: thyA H147V (Escherichia coli, UniProt P0A884); chain MKQYLELMQKVLDEGTQKNDRTGTGTLSIFGHQMRFNLQDGFPLVTTKRCHLRSIIHELLWFLQGDTNIAYLHENNVTIWDEWADENGDLGPVYGKQWRAWPTPDGRHIDQITTVLNQLKNDPDSRRIIVSAWNVGELDKMALAPCVAFFQFYVADGKLSCQLYQRSCDVFLGLPFNIASYALLVHMMAQQCDLEVGDFVWTGGDTHLYSNHMDQTHLQLSREPRPLPKLIIKRKPESIFDYRFEDFEIEGYDPHPGIKAPVAI
B3: PUT1 del N-terminal 18 (Saccharomyces cerevisiae, UniProt P09368); chain CFPLIKRSYVSKTPTHSNTAANLMVETPAANANGNSVMAPPNSINFLQTLPKKELFQLGFIGIATLNSFFLNTIIKLFPYIPIPVIKFFVSSLYCGGENFKEVIECGKRLQKRGISNMMLSLTIENSEGTKSLSSTPVDQIVKETISSVHNILLPNIIGQLESKPINDIAPGYIALKPSALVDNPHEVLYNFSNPAYKAQRDQLIENCSKITKEIFELNQSLLKKYPERKAPFMVSTIDAEKYDLQENGVYELQRILFQKFNPTSSKLISCVGTWQLYLRDSGDHILHELKLAQENGYKLGLKLVRGAYIHSEKNRNQIIFGDKTGTDENYDRIITQVVNDLIINGEDSYFGHLVVASHNYQSQMLVTNLLKSTQDNSYAKSNIVLGQLLGMADNVTYDLITNHGAKNIIKYVPWGPPLETKDYLLRRLQENGDAVRSDNGWPLIKAIAKSIPKRVGL
B4: MTRR A129T (Homo sapiens, UniProt Q9UBK8); chain MRRFLLLYATQQGQAKAIAEEICEQAVVHGFSADLHCISESDKYDLKTETAPLVVVVSTTGTGDPPDTARKFVKEIQNQTLPVDFFAHLRYGLLGLGDSEYTYFCNGGKIIDKRLQELGARHFYDTGHTDDCVGLELVVEPWIAGLWPALRKHFRSSRGQEEISGALPVASPASSRTDLVKSELLHIESQVELLRFDDSGRKDSEVLKQNAVNSNQSNVVIEDFESSLTRSVPPLSQASLNIPGLPPEYLQVHLQESLGQEESQVSVTSADPVFQVPISKAVQLTTNDAIKTTLLVELDISNTDFSYQPGDAFSVICPNSDSEVQSLLQRLQLEDKREHCVLLKIKADTKKKGATLPQHIPAGCSLQFIFTWCLEIRAIPKKAFLRALVDYTSDSAEKRRLQELCSKQGAADYSRFVRDACACLLDLLLAFPSCQPPLSLLLEHLPKLQPRPYSCASSSLFHPGKLHFVFNIVEFLSTATTEVLRKGVCTGWLALLVASVLQPNIHASHEDSGKALAPKISISPRTTNSFHLPDDPSIPIIMVGPGTGIAPFIGFLQHREKLQEQHPDGNFGAMWLFFGCRHKDRDYLFRKELRHFLKHGILTHLKVSFSRDAPVGEEEAPAKYVQDNIQLHGQQVARILLQENGHIYVCGDAKNMAKDVHDALVQIISKEVGVEKLEAMKTLATLKEEKRYLQDIWS
B5: onr (Enterobacter cloacae, UniProt P71278); chain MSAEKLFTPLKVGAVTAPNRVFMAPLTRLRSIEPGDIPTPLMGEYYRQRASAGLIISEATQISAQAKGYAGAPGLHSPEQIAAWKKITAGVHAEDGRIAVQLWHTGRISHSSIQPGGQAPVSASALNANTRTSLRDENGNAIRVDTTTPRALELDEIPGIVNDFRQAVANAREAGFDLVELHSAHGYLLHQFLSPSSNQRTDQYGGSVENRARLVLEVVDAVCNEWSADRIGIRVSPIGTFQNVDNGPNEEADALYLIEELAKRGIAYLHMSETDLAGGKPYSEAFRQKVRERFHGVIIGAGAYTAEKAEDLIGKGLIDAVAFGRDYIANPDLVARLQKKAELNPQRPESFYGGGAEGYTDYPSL
B6: HARS1 Y330C (Homo sapiens, UniProt P12081); chain MAERAALEELVKLQGERVRGLKQQKASAELIEEEVAKLLKLKAQLGPDESKQKFVLKTPKGTRDYSPRQMAVREKVFDVIIRCFKRHGAEVIDTPVFELKETLMGKYGEDSKLIYDLKDQGGELLSLRYDLTVPFARYLAMNKLTNIKRYHIAKVYRRDNPAMTRGRYREFYQCDFDIAGNFDPMIPDAECLKIMCEILSSLQIGDFLVKVNDRRILDGMFAICGVSDSKFRTICSSVDKLDKVSWEEVKNEMVGEKGLAPEVADRIGDYVQQHGGVSLVEQLLQDPKLSQNKQALEGLGDLKLLFEYLTLFGIDDKISFDLSLARGLDCYTGVIYEAVLLQTPAQAGEEPLGVGSVAAGGRYDGLVGMFDPKGRKVPCVGLSIGVERIFSIVEQRLEALEEKIRTTETQVLVASAQKKLLEERLKLVSELWDAGIKAELLYKKNPKLLNQLQYCEEAGIPLVAIIGEQELKDGVIKLRSVTSREEVDVRREDLVEEIKRRTGQPLCIC
B7: BPHL (Homo sapiens, UniProt Q86WA6); chain SVTSAKVAVNGVQLHYQQTGEGDHAVLLLPGMLGSGETDFGPQLKNLNKKLFTVVAWDPRGYGHSRPPDRDFPADFFERDAKDAVDLMKALKFKKVSLLGWSDGGITALIAAAKYPSYIHKMVIWGANAYVTDEDSMIYEGIRDVSKWSERTRKPLEALYGYDYFARTCEKWVDGIRQFKHLPDGNICRHLLPRVQCPALIVHGEKDPLVPRFHADFIHKHVKGSRLHLMPEGKHNLHLRFADEFNKLAEDFLQ
B8: enzyme (Acetivibrio thermocellus, UniProt A3DJ38); chain MKLTIPELSLVVLIGSSGSGKSTFAKKHFKPTEVISSDFCRGLVSDDENDQTVTGAAFDVLHYIVSKRLQLGKLTVVDATNVQESARKPLIEIAKDYHCFPVAVVFNLPEKVCQERNKNRTDRQVEEYVIRKHTQQLKKSIKGLQREGFRYVYILNSPEEVEEVVFERQPLWNNKKDEHGPFDIIGDIHGCYDELKMLLEKLGYLIEEVEGGVGSGKYRVTHPEGRKVLFLGDLVDRGPKITEVLKLVMGMVKSGIALCVPGNHDVKLLRKLNGRDVQITHGLDRTLEQLAKEPQEFIEEVKAFIDGLVSHYVLDDGKLVVAHAGMKEEFQGRGSGKVREFALYGETTGETDEYGLPVRYDWASDYRGKALVVYGHTPQAEVLKVNNTINIDTGCVFGGKLTAYRYPEREIVDVKALKTYYEPAKPFLPKEDMAERFEARTDNDILDINDVLGKKIITTRLMSSITIHEENSIAALEVMSRFAADPHWLIYLPPTMSPCETSKKEGMLEHPIEAFEYFRTRGVGKVVCEQKHMGSRAVVIVCKDSQVAEKRFGVLDGTAGICYTRTGRHFFDDMQLEAELIDRVRKVLDKSGFWGDFNTDWVCLDCELMPWSAKAQKLLEEQYSAVGISGRVVLDEAVKLLKQASLNKTVSFDVSRQTSGKNADINELLQRFTERSEMMQKYVEAYRKYCWPVNSIDDLKLAPFHILATEGKVHSDKNHIWHMDTIAKYCTQDDSLIMATNHILVDVTDAESVDKGIKWWEDLTASGGEGMVVKPYDFIVKNGRELLQPAVKCRGREYLRIIYGPEYTMDENIERLRNRAVGKKRSLALREFSLGMEALERFVRNEPLYRVHECVFGVLALESEPVDPRL
B9: enzyme (Rattus norvegicus, UniProt P06757); chain STAGKVIKCKAAVLWEPHKPFTIEDIEVAPPKAHEVRIKMVATGVCRSDDHAVSGSLFTPLPAVLGHEGAGIVESIGEGVTCVKPGDKVIPLFSPQCGKCRICKHPESNLCCQTKNLTQPKGALLDGTSRFSCRGKPIHHFISTSTFSQYTVVDDIAVAKIDAAAPLDKVCLIGCGFSTGYGSAVQVAKVTPGSTCAVFGLGGVGLSVVIGCKTAGAAKIIAVDINKDKFAKAKELGATDCINPQDYTKPIQEVLQEMTDGGVDFSFEVIGRLDTMTSALLSCHSACGVSVIVGVPPSAQSLSVNPMSLLLGRTWKGAIFGGFKSKDAVPKLVADFMAKKFPLEPLITHVLPFEKINEAFDLLRAGKSIRTVLTF
Sequence of UniProt Q3SY77 (whole entry, looked up): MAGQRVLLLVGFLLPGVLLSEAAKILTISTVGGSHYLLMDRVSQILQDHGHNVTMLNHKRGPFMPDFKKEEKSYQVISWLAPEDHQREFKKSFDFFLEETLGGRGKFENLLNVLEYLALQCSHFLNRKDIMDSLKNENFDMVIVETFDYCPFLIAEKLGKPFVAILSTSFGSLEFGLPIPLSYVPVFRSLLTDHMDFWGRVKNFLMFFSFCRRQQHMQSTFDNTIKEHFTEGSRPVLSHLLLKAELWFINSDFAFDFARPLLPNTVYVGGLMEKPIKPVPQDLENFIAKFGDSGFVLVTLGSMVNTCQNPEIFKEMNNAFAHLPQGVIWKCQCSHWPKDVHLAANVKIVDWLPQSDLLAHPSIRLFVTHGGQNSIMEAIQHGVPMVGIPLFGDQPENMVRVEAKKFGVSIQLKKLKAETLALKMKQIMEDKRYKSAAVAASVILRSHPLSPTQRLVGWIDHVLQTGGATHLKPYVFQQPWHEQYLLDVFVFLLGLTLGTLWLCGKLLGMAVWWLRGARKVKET
Sequence of UniProt Q51366 (whole entry, looked up): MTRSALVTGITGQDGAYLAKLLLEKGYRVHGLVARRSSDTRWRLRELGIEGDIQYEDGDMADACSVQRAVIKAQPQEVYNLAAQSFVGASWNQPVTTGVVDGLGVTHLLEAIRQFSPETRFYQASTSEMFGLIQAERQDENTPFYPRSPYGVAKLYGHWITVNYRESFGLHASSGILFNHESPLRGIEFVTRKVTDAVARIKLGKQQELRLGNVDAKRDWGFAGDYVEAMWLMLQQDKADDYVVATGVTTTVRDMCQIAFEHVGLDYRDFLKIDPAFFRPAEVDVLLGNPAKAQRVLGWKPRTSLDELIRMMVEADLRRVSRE

enzyme (Pseudomonas aeruginosa, UniProt Q51366)
Km (Nc1nc2c(ncn2[C@@H]2O[C@H](COP(=O)(O)OP(=O)(O)O[C@H]3O[C@H](CO)[C@@H](O)[C@H](O)[C@@H]3O)[C@@H](O)[C@H]2O)c(=O)[nH]1; 37 °C): 14 µM

UGT3A2 (Homo sapiens, UniProt Q3SY77)
Km (O=c1ccn([C@@H]2O[C@H](COP(=O)(O)OP(=O)(O)O[C@H]3OC[C@@H](O)[C@H](O)[C@H]3O)[C@@H](O)[C@H]2O)c(=O)[nH]1; pH 7.4, 37 °C, not purified, together with: 1-OH-pyrene 16 µM, MgCl2 10 mM, alamethicin): 728 µM

B1 (Comt)
Km (O=c1oc2c(O)c(O)ccc2cc1-c1nc2ccccc2s1; MLS9; pH 7.4, 37 °C): 0.63 µM

B2 (thyA H147V)
Km (Nc1nc2c(c(=O)[nH]1)N1CN(c3ccc(C(=O)N[C@@H](CCC(=O)O)C(=O)O)cc3)C[C@H]1CN2; 25 °C, substrate inhibition by CH2H4folate, cofactor varied, together with: dUMP 200 µM): 25 µM

B3 (PUT1 del N-terminal 18)
Km (COC1=C(OC)C(=O)C(CC=C(C)C)=C(C)C1=O; pH 8, 25 °C, ping-pong, together with: proline 300 mM, electron acceptor): 33 µM

B4 (MTRR A129T)
Km (CC1=CC(=O)c2ccccc2C1=O; pH 7.5, 37 °C, substoichiometric FMN, together with: NADPH): 7.8 µM

sacB (Priestia megaterium, UniProt D5DC07)
Km (OC[C@H]1O[C@@](CO)(O[C@H]2O[C@H](CO)[C@@H](O)[C@H](O)[C@H]2O)[C@@H](O)[C@@H]1O; pH 6.9): 21200 µM

B5 (onr)
Km (CC(C)=CCC/C(C)=C/C=O; pH 7, 25 °C, apparent, anaerobic, together with: NADPH 100 µM): 26.7 µM

B6 (HARS1 Y330C)
Km (Nc1ncnc2c1ncn2[C@@H]1O[C@H](COP(=O)(O)OP(=O)(O)OP(=O)(O)O)[C@@H](O)[C@H]1O; pH 7.5, saturation not reached, together with: histidine, tRNAHis 5 µM, MgCl2 10 mM, KCl 150 mM): 1760 µM

B7 (BPHL)
Km (CC(C)[C@H](N)C(=O)NCc1cccc(NC=NN)c1; pH 7.4, 37 °C): 1810 µM

B8 (enzyme)
Km (Nc1ncnc2c1ncn2[C@@H]1O[C@H](CO)[C@H]2OP(=O)(O)O[C@H]21; pH 7.5, 45 °C): 18000 µM

B9 (enzyme)
Km (OCc1ccccc1; pH 7.3, 37 °C): 36 µM

A few entries again:
B5 (onr)
Km (CC(C)=CCC/C(C)=C/C=O; pH 7, 25 °C, apparent, anaerobic, together with: NADPH 100 µM): 26.7 µM
